Measurements from different studies.
Protocols differ between the studies behind these lines. Values joined by “and” are separate records of one study, mostly repeats; a detail may differ. Numbers after ± are the reported error.
Serotonin N-acetyltransferase: Serotonin N-acetyltransferase (Ovis aries, UniProt Q29495)
UniProt Q29495, sequence (whole entry, looked up): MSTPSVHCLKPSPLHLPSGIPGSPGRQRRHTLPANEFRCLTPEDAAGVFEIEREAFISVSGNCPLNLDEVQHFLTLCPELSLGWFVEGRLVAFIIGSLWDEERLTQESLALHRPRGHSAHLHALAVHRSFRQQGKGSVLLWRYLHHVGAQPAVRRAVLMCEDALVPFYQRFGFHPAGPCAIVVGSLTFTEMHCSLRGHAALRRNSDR
F12: Coagulation factor XII (F12, Homo sapiens, UniProt P00748)
UniProt P00748, sequence (whole entry, looked up): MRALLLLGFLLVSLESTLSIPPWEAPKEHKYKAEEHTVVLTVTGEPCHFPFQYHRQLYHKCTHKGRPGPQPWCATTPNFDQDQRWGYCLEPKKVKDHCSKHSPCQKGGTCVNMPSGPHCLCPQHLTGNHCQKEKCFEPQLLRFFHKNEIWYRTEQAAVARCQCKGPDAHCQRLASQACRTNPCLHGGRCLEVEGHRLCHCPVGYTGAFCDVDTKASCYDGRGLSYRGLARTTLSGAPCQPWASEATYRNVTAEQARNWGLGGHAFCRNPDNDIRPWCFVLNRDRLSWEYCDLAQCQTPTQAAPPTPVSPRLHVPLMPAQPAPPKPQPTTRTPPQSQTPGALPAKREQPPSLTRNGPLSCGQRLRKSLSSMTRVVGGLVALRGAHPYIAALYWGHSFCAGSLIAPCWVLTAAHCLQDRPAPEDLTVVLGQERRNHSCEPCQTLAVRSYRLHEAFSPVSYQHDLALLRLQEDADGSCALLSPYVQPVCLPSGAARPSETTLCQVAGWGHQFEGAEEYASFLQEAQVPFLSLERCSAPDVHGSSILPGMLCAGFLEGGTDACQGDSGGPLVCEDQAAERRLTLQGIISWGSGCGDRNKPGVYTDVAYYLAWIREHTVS
Low molecular weight phosphotyrosine protein phosphatase isoform A: Low molecular weight phosphotyrosine protein phosphatase, isoform A (Mus musculus, UniProt Q9D358)
UniProt Q9D358, sequence (whole entry, looked up): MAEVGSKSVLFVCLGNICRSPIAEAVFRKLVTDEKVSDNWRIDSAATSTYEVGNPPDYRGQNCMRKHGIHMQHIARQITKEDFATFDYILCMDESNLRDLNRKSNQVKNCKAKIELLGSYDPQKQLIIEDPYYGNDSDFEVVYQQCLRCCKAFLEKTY
PSMB7: Proteasome subunit beta type-7 (PSMB7, Homo sapiens, UniProt Q99436)
UniProt Q99436, sequence (whole entry, looked up): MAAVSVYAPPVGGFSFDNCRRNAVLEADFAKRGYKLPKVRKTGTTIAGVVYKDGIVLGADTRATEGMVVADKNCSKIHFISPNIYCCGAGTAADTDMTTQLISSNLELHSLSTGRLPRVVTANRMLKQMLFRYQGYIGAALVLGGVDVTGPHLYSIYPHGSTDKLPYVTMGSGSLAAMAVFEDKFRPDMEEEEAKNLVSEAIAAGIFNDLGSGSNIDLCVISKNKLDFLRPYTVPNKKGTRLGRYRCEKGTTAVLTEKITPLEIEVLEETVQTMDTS
EGFR: Epidermal growth factor receptor (EGFR, Homo sapiens, UniProt P00533)
PSMB1/PSMB8/PSMB3: PSMB1/PSMB8/PSMB3 (Homo sapiens, UniProt P20618+P28062+P49720)
UniProt P28062, sequence (whole entry, looked up): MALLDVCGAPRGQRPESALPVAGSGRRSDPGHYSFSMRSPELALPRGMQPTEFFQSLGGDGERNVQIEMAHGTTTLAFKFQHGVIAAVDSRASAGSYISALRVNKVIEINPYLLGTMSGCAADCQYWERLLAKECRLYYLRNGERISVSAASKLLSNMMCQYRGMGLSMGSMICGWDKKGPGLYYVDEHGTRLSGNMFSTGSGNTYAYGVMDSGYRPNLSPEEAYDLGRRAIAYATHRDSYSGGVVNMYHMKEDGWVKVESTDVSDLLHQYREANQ
UniProt P49720, sequence (whole entry, looked up): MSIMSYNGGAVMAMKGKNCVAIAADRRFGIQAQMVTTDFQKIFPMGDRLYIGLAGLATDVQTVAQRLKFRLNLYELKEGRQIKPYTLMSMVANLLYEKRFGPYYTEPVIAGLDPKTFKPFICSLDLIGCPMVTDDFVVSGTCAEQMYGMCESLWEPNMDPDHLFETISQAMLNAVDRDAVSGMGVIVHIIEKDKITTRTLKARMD
UniProt P20618, sequence (whole entry, looked up): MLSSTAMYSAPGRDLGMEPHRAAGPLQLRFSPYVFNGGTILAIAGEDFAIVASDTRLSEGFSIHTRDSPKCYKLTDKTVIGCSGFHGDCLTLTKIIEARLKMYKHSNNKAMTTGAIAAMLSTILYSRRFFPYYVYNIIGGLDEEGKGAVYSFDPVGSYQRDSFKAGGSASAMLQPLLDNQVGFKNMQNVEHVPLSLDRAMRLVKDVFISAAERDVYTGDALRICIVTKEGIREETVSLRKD
Pancreatic alpha-amylase: Pancreatic alpha-amylase (Homo sapiens, UniProt P04746)
UniProt P04746, sequence (whole entry, looked up): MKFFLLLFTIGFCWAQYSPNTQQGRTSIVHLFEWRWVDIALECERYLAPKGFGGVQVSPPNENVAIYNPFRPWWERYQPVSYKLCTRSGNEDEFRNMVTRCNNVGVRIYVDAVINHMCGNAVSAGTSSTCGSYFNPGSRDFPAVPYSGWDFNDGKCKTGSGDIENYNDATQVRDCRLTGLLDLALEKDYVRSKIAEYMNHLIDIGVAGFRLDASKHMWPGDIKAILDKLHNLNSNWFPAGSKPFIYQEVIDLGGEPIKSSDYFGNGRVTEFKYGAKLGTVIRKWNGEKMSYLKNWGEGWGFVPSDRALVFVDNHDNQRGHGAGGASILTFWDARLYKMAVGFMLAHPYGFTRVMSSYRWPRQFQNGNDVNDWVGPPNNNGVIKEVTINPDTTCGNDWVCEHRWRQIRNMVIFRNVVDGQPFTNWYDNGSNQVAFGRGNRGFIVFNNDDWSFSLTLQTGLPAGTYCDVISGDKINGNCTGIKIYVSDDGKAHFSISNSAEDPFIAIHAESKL
Urease subunit alpha: Urease subunit alpha (Sporosarcina pasteurii, UniProt P41020)
UniProt P41020, sequence (whole entry, looked up): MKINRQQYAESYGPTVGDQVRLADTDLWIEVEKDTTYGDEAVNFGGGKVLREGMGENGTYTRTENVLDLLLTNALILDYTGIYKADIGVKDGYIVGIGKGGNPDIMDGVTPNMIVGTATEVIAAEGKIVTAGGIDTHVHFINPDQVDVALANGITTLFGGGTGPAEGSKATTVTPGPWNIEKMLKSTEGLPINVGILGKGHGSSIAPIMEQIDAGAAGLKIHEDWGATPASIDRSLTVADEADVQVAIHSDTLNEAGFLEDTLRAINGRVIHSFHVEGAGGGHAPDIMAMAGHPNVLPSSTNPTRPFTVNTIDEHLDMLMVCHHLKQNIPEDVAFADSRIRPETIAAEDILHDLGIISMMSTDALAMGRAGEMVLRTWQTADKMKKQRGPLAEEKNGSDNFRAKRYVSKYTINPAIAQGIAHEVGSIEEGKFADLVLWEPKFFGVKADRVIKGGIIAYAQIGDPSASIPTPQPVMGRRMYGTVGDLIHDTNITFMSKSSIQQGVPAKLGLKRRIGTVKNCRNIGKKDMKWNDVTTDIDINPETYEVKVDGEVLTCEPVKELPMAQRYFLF
UniProt Q9Y4K0, sequence (whole entry, looked up): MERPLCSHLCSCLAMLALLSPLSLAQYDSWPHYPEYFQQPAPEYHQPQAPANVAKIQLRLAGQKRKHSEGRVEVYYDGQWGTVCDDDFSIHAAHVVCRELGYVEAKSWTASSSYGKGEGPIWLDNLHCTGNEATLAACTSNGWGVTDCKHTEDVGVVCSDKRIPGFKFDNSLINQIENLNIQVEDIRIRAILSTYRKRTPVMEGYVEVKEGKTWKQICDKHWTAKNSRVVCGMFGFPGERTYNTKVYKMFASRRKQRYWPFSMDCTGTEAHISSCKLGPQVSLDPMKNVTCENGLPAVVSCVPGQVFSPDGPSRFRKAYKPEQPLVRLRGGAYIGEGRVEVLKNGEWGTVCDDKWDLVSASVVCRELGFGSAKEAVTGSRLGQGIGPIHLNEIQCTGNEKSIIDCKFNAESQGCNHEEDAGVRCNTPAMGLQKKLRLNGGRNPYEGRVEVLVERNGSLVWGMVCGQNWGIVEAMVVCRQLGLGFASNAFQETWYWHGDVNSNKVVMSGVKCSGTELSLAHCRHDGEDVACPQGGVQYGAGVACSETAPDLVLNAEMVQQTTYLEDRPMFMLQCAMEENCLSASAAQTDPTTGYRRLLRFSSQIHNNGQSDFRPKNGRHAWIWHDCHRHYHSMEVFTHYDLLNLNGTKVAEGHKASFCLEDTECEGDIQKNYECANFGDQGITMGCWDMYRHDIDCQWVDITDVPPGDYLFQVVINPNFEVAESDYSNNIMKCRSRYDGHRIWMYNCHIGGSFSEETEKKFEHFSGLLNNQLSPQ
UniProt P56817, sequence (whole entry, looked up): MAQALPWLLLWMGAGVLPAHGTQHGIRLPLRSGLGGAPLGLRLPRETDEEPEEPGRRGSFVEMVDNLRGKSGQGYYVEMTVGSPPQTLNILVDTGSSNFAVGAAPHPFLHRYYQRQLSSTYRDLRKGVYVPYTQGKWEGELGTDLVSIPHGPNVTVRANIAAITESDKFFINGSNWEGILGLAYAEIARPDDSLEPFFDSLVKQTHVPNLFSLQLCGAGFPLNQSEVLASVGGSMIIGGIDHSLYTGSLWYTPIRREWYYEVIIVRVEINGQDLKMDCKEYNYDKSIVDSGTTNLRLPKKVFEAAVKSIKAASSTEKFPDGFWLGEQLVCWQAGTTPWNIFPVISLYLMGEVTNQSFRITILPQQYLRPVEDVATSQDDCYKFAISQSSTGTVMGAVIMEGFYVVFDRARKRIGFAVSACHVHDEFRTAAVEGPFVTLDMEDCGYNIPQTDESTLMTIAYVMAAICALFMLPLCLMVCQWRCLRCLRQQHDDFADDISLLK
UniProt P43005, sequence (whole entry, looked up): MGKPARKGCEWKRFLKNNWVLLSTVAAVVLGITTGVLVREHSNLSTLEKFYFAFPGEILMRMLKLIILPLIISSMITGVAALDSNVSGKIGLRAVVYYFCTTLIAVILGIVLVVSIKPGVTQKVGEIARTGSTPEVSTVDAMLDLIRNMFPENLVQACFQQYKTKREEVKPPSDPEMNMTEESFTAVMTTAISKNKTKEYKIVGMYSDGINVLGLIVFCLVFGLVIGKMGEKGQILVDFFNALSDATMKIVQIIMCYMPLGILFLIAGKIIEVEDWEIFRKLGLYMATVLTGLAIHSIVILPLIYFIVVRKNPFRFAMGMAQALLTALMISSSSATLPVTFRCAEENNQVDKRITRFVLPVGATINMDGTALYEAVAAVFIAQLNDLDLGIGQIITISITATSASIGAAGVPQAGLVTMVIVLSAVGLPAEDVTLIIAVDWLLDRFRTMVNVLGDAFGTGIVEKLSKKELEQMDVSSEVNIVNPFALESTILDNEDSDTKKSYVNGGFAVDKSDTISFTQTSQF

O=C(O)CCCCCN1C(=O)/C(=C2/C(=O)Nc3ccccc32)SC1=S — IC50 (Serotonin N-acetyltransferase; inhibitor, stopped-flow UV; together with: serotonin 100 µM, acetyl-CoA 100 µM): > 60 µM
COCc1nn(Cc2ccc(Cn3ccccc3=O)cc2)cc1C(=O)NCc1c(Cl)ccc(OC)c1F — IC50 (F12): > 40 µM
N#Cc1ccccc1-c1cc(NCCCN2CCCCC2)c2ccccc2n1 — IC50 (Low molecular weight phosphotyrosine protein phosphatase isoform A; enzyme activity, inhibitor; together with: OMFP substrate): 0.46 µM
CC(C)(C)NC(=O)C[C@H](NC(=O)C(=O)c1c[nH]c2ccccc12)C(=O)NCc1cccc(B(O)O)c1 — IC50 (PSMB7; inhibitor): > 33.3 µM
O=C(Nc1cnc2ccccc2c1)c1cc2[nH]ccc2cc1Cl — metabolic activity (COS-7; WST-8; 10 µM, 24 h, 0.1% DMSO, unit not given; baseline: vehicle control): 0.99 ± 0.04
COc1c(O)c(C)cc2c1C(=O)c1c(ccc(O)c1O)C2=O — cell viability (HepaRG co-cultured with HK-2; MTT; 33.33 µM, 48 h; baseline: untreated control): 44.2 ± 2.65%
COc1ccc(-c2nn(-c3ccc(S(C)(=O)=O)cc3)cc2C=N/N=c2\[nH]c(-c3ccc([N+](=O)[O-])cc3)cs2)cc1 — IC50 (EGFR; kinase activity, inhibitor): 0.19 ± 0.008 µM
Cc1nc2ccc(Br)cc2c(=O)n1/N=C/c1ccc(C(=O)O)cc1 — IC50 (MAL12 (Saccharomyces cerevisiae S288c, UniProt P53341); enzyme activity, inhibitor; Saccharomyces cerevisiae; together with: 4-nitrophenyl glucopyranoside): 16.4 ± 0.54 µM
CC(C)C[C@H](NC(=O)[C@H](CCc1ccccc1)NC(=O)CN1CCOCC1)C(=O)N[C@@H](Cc1ccccc1)C(=O)N[C@@H](CC(C)C)C(=O)[C@@]1(C)CO1 — IC50 (Psmb7/Psmb6, β1 subunit (Mus musculus, UniProt P70195+Q60692); proteasome subunit activity; Ba/F3 BCR-ABL1 T315I; 1 h pulse): 0.267 ± 0.0745 µM
c1ccc(-c2cc(NCCCN3CCCCC3)c3ccccc3n2)cc1 — IC50 (Low molecular weight phosphotyrosine protein phosphatase isoform A; enzyme activity, inhibitor; together with: OMFP substrate): 1.56 µM
COCC(=O)N1CCC[C@H](C(=O)NCc2nc(-c3ccccc3)cs2)C1 — IC50 (PSMB1/PSMB8/PSMB3): > 30 µM
C=CC(=O)Nc1cc(Nc2nccc(Nc3cc(Cl)c(F)cc3C(C)(C)O)n2)c(OC)cc1N1CC[C@@H](N(C)C)C1 — IC50 (EGFR; EGFR phosphorylation, HTRF; H2073^WT cells; 2 h, together with: EGF): 0.166 µM
Cc1ccccc1Nc1c(-c2ccco2)nc2c(C(F)F)cccn12 — IC50 (SLC1A1 (Homo sapiens, UniProt P43005); glutamate uptake, impedance; HEK293, doxycycline-induced; AUC over 3 h, together with: 1 mM L-glutamate): ~10 µM
c1ccc(-c2cc(NCCCN3CCOCC3)c3ccccc3n2)cc1 — IC50 (Low molecular weight phosphotyrosine protein phosphatase isoform A; enzyme activity, inhibitor; together with: OMFP substrate): 7.68 µM
Cc1cc(C(=O)NCc2ccc(CN)cc2)c(C)n1Cc1ccc(Cn2ccccc2=O)cc1 — IC50 (F12): > 10 µM
OC[C@H]1O[C@@H](Oc2cc3c4c(c2)[C@@H]([C@@H]2c5cc(O)cc6c5[C@@H](c5cc(O)cc(O)c5[C@H]2c2ccc(O)cc2)[C@H](c2ccc(O)cc2)O6)[C@H](c2ccc(O)cc2)c2c(O)cc(O)cc2[C@H]4[C@H](c2ccc(O)cc2)O3)[C@H](O)[C@@H](O)[C@@H]1O — IC50 (Pancreatic alpha-amylase; enzyme activity, inhibitor, HPAEC-PAD; together with: maltoheptaose substrate): > 100 µM
COc1ccc(C[C@H](NC(=O)[C@H](C)NC(=O)CN2CCOCC2)C(=O)N[C@@H](CCC2CCCCC2)C(=O)[C@@]2(C)CO2)cc1 — IC50 (PSMB7; enzyme activity, cell-based): > 10 µM
N=C(N)c1ccc(CNC(=O)c2cnn(Cc3ccccc3)c2)cc1 — IC50 (F12): > 40 µM
c1ccc(-c2cc(SCCCN3CCCCC3)c3ccccc3n2)cc1 — IC50 (Low molecular weight phosphotyrosine protein phosphatase isoform A; enzyme activity, inhibitor; together with: OMFP substrate): 66.9 µM
CN1CCN(c2ccc(Nc3ncc4cc(C#N)c(=O)n(C5CCCC5)c4n3)cc2)CC1 — IC50 (PIM2 (Homo sapiens, UniProt Q9P1W9)): > 10 µM
CN1CC2c3ccccc3Oc3ccc(Cl)cc3C2C1 (stereo not shown) — EC50 (HTR1A (Homo sapiens, UniProt P08908, K345A); agonist): 0.00912 µM
O=C1/C(=C2/C(=O)N(Cc3ccc(F)cc3)c3ccccc32)SC(=S)N1CCCCCCO — IC50 (Serotonin N-acetyltransferase; inhibitor, stopped-flow UV; together with: serotonin 100 µM, acetyl-CoA 100 µM): > 60 µM
CC[C@H](C)[C@H](NC(=O)[C@H](Cc1ccccc1)NC(=O)[C@H](Cc1ccc(O)cc1)NC(=O)[C@@H]1CCCN1C(=O)[C@@H](N)Cc1ccc(O)cc1)C(=O)N1CCC[C@H]1C(=O)N[C@@H](CC(C)C)C(=O)NCC(=O)N[C@H](CCCCN)C(=O)NCC(=O)N[C@@H](CCC(=O)O)C(=O)N[C@H](C(=O)N[C@@H](CC(N)=O)C(=O)N[C@@H](CC(C)C)[C@@H](O)CC(=O)N[C@H](C(=O)N[C@@H](C)C(=O)N[C@@H](CCC(=O)O)C(=O)N1CCC[C@@H]1C(=O)N[C@@H](CCCCNC(=O)CCC(=O)O[C@H]1CC[C@@]2(C)C(=CC[C@H]3[C@@H]4CC[C@H]([C@H](C)CCCC(C)C)[C@@]4(C)CC[C@@H]32)C1)C(N)=O)C(C)C)C(C)C — IC50 (Beta-secretase 1 (BACE1, Homo sapiens, UniProt P56817); Aβ40 lowering, AlphaLISA; HEK293 APP695): 5e-05 µM
C[C@@H]1CN(C(=O)c2ccc(NC(=O)c3cc(O[C@H](C)c4c(Cl)ccc(F)c4Cl)c(N)nn3)cc2)C[C@H](C)N1 — IC50 (ALK (Homo sapiens, UniProt Q9UM73); enzyme activity, inhibitor; together with: ATP 1 mM): 0.0009 µM
NCCOCC(=O)N1CCC[C@H](C(=O)NCc2nc(-c3ccc(C(F)(F)F)cc3)cs2)C1 — IC50 (PSMB1/PSMB8/PSMB3): > 30 µM
CC(C)C(=O)Nc1n[nH]c2cc(-c3cccc(NS(=O)(=O)C4CC4)c3)ccc12 — IC50 (AAK1 (Homo sapiens, UniProt Q2M2I8)): 20 µM
CCN1CCN(c2cc(N3CCN(CC)CC3)nc(NCCNc3ccnc4cc(Cl)ccc34)n2)CC1 — metabolic activity (COS-7; WST-8; 20 µM, 24 h, 0.1% DMSO, unit not given; baseline: vehicle control): 0.75 ± 0.23
N#Cc1ccc(-c2cc(NCCCN3CCCCC3)c3ccccc3n2)cc1 — IC50 (Low molecular weight phosphotyrosine protein phosphatase isoform A; enzyme activity, inhibitor; together with: OMFP substrate): 0.92 µM
Cc1cc(O)c2c(c1)C(=O)c1cc(O)cc(O)c1C2=O — cell viability (HepaRG co-cultured with HK-2; MTT; 66.67 µM, 48 h; baseline: untreated control): 30.6 ± 6.79%
O=C(O)CCCCCN1C(=O)S/C(=C2\C(=O)N(Cc3ccc(F)cc3)c3ccccc32)C1=O — IC50 (Serotonin N-acetyltransferase; inhibitor, stopped-flow UV; together with: serotonin 100 µM, acetyl-CoA 100 µM): 43 ± 37 µM
Cn1cc(-c2ccc(-c3cncc(Cl)c3N3CCC4(CCNC4=O)CC3)cc2)cn1 — log2 fold change (COLO 205; gene expression, microarray, measured: PNRC1 mRNA; concentration not given, 2 h; baseline: untreated cells): 1.53
Cc1cnc(-c2ccc(-c3ccc(NC(=O)Nc4c(F)cc(F)cc4F)cc3F)c3c2C(=O)NC3)[nH]1 — IC50 (MAP2K1 (Homo sapiens, UniProt Q02750); enzyme activity, inhibitor, mobility shift; together with: ATP 1 mM): 0.325 µM
CC(C)c1ccc(NC(=S)N/N=C/C=C/c2ccc(F)cc2)cc1 — IC50 (Urease subunit alpha; enzyme activity, indophenol method): 8.9 ± 0.5 µM
CC(C)C[C@H](NC(=O)c1cnccn1)C(=O)N[C@@H](C)C(=O)N[C@H](/C=C/S(C)(=O)=O)Cc1ccc(CN)cc1 — IC50 (PSMB7; inhibitor, biochemical): 0.238 µM
C=CC(=O)Nc1cccc(Sc2nc(Nc3ccc(N4CCN(C)CC4)cc3)ncc2Cl)c1 — IC50 (Epidermal growth factor receptor, with GRB2 (EGFR, Homo sapiens, UniProt P00533, T790M); EGFR-GRB2 interaction, NanoBiT; cells expressing EGFR T790M; 1 h, together with: EGF 300 ng/mL): 0.0427 µM and 0.043 µM
Cc1cccc(C)c1NC(=S)N/N=C/C=C/c1ccc(F)cc1 — IC50 (Urease subunit alpha; enzyme activity, indophenol method): 11.9 ± 0.6 µM
Cc1nc2ccc(Cl)cc2c(=O)n1NC1=NC(=O)CS1 — IC50 (Pancreatic alpha-amylase; enzyme activity, inhibitor): 458 ± 9.19 µM
COc1ccnc(CNC(=O)c2cn(Cc3ccc(Cn4ccccc4=O)cc3)nc2C2CC2)c1F — IC50 (F12): > 40 µM
O=C(O)Cc1ccc(N2C(=O)/C(=C3/C(=O)N(Cc4ccc(F)cc4)c4ccccc43)SC2=S)cc1 — IC50 (Serotonin N-acetyltransferase; inhibitor, stopped-flow UV; together with: serotonin 100 µM, acetyl-CoA 100 µM): 9.8 ± 8.1 µM
CC(C)C[C@H](NC(=O)C[C@H](O)[C@H](CC(C)C)NC(=O)[C@H](Cc1c[nH]cn1)NC(=O)CNC(=O)[C@@H](NC(=O)[C@H](C)NC(=O)[C@H](Cc1c[nH]c2ccccc12)NC(=O)[C@H](CCC(N)=O)NC(=O)[C@@H](Cc1ccccc1)NC(=O)COCCOCCNC(=O)CCC(C(=O)O)N1CCN(CC(=O)O)CCN(CC(=O)O)CCN(CC(=O)O)CC1)C(C)C)C(N)=O (stereo partly shown) [lutetium-177 labelled] — tissue uptake (BALB/c nu/nu mice, lung; intravenous, 500 pmol, 1 h, together with: PA 300 µg): 0.9 ± 0.8 %ID/g
Cn1cc2c(C(=O)O)ccc(NS(=O)(=O)c3ccc(Cl)c(Cl)c3)c2n1 — IC50 (HSD17B2 (Homo sapiens, UniProt P37059); enzyme activity, inhibitor; together with: β-estradiol): 30 µM
CC(=O)Nc1ccc(Nc2nc(-c3sc(N)nc3C)cs2)cc1 — IC50 (LOXL2 (Homo sapiens, UniProt Q9Y4K0); enzyme activity; HEK-293T conditioned media): 2.82 µM
CCCOc1nc(N)nc(N)c1OCCCOc1ccccc1CCC(=O)O — IC50 (uncharacterized protein (Mycobacteroides abscessus, UniProt B1MD46); enzyme activity, inhibitor, NADPH fluorescence; together with: 1 nM enzyme): > 5 µM

A few entries again:
N=C(N)c1ccc(CNC(=O)c2cnn(Cc3ccccc3)c2)cc1 — IC50 (F12): > 40 µM
c1ccc(-c2cc(SCCCN3CCCCC3)c3ccccc3n2)cc1 — IC50 (Low molecular weight phosphotyrosine protein phosphatase isoform A; enzyme activity, inhibitor; together with: OMFP substrate): 66.9 µM
CN1CCN(c2ccc(Nc3ncc4cc(C#N)c(=O)n(C5CCCC5)c4n3)cc2)CC1 — IC50 (PIM2 (Homo sapiens, UniProt Q9P1W9)): > 10 µM
CN1CC2c3ccccc3Oc3ccc(Cl)cc3C2C1 (stereo not shown) — EC50 (HTR1A (Homo sapiens, UniProt P08908, K345A); agonist): 0.00912 µM
O=C1/C(=C2/C(=O)N(Cc3ccc(F)cc3)c3ccccc32)SC(=S)N1CCCCCCO — IC50 (Serotonin N-acetyltransferase; inhibitor, stopped-flow UV; together with: serotonin 100 µM, acetyl-CoA 100 µM): > 60 µM
CC[C@H](C)[C@H](NC(=O)[C@H](Cc1ccccc1)NC(=O)[C@H](Cc1ccc(O)cc1)NC(=O)[C@@H]1CCCN1C(=O)[C@@H](N)Cc1ccc(O)cc1)C(=O)N1CCC[C@H]1C(=O)N[C@@H](CC(C)C)C(=O)NCC(=O)N[C@H](CCCCN)C(=O)NCC(=O)N[C@@H](CCC(=O)O)C(=O)N[C@H](C(=O)N[C@@H](CC(N)=O)C(=O)N[C@@H](CC(C)C)[C@@H](O)CC(=O)N[C@H](C(=O)N[C@@H](C)C(=O)N[C@@H](CCC(=O)O)C(=O)N1CCC[C@@H]1C(=O)N[C@@H](CCCCNC(=O)CCC(=O)O[C@H]1CC[C@@]2(C)C(=CC[C@H]3[C@@H]4CC[C@H]([C@H](C)CCCC(C)C)[C@@]4(C)CC[C@@H]32)C1)C(N)=O)C(C)C)C(C)C — IC50 (Beta-secretase 1 (BACE1, Homo sapiens, UniProt P56817); Aβ40 lowering, AlphaLISA; HEK293 APP695): 5e-05 µM
C[C@@H]1CN(C(=O)c2ccc(NC(=O)c3cc(O[C@H](C)c4c(Cl)ccc(F)c4Cl)c(N)nn3)cc2)C[C@H](C)N1 — IC50 (ALK (Homo sapiens, UniProt Q9UM73); enzyme activity, inhibitor; together with: ATP 1 mM): 0.0009 µM
